Published values gathered from unrelated publications.
Compare with care: the assays were run in different laboratories. “And” joins repeats or separate records; there may be more than shown. ± marks the error that the study gave.
Voltage-dependent P/Q-type calcium channel subunit alpha-1A: Voltage-dependent P/Q-type calcium channel subunit alpha-1A (Homo sapiens, UniProt O00555)
ADRA2C: Alpha-2C adrenergic receptor (ADRA2C, Homo sapiens, UniProt P18825)
UCHL1: Ubiquitin carboxyl-terminal hydrolase isozyme L1 (UCHL1, Homo sapiens, UniProt P09936)
T1: RNA aptamer del11, 5'-triphosphate, 2',3'-cyclic phosphate; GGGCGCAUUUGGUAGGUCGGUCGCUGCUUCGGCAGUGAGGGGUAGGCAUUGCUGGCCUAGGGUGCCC
T2: G-quadruplex DNA (Homo sapiens); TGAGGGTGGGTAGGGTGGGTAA

SMILES | tested on | assay | system | conditions | how to read | endpoint | value
CC(C)[C@H](NC(=O)c1cc(-c2cnn3cc(-c4ccc(OCCN5CCCCC5)cc4)cnc23)cs1)C(F)(F)F | TLK2 (Homo sapiens, UniProt Q86UE8) | radiometric kinase |  | 15 nM | baseline: TLK2 over ULK1 | relative inhibition | 0.0341
CC[C@H](C)C(=O)O[C@H]1C[C@H](O)C=C2C=C[C@H](C)[C@H](CC[C@@H](O)C[C@@H](O)CC(=O)O)[C@H]21 | Voltage-dependent P/Q-type calcium channel subunit alpha-1A | ion current, antagonist | HEK293 | 30 µM |  | inhibition | -4%
O=C(c1ccc(C(=O)N2CCC(N3CCCC3)CC2)c(Nc2ccccc2)c1)N1CCC(N2CCCC2)CC1 | Lethal(3)malignant brain tumor-like protein 3 (Homo sapiens, UniProt Q96JM7) | FRAP | human cells | 1 µM |  | diffusion coefficient | 0.051 µm2/s
Cc1cc(-c2ccnc3[nH]cc(F)c23)cc(F)c1[C@@]1(O)[C@H](C)CN(C2CCS(=O)(=O)CC2)C[C@@H]1C | LATS1 (Homo sapiens, UniProt O95835) | ATP/ADP probe binding, KiNativ | HEK293T lysate | 0.1 µM, Lys1 peptide ALYATKTLR |  | probe labelling inhibition | 8.9%
Cc1cn(C2CCN(Cc3cccc(Oc4ccc(Cl)c(Cl)c4)c3)CC2)c(=O)[nH]c1=O | Thymidylate kinase (DTYMK, Homo sapiens, UniProt P23919) | enzyme activity, inhibitor |  | no inhibition observed |  | highest concentration tested | > 40 µM
CSCC[C@H](NC(C)=O)C(=O)N[C@@H](CC(=O)O)C(=O)N1CCC[C@H]1C(=O)N1CCC[C@H]1C(=O)N[C@@H](CC(C)C)C(=O)N[C@@H](Cc1c[nH]cn1)C(=O)N[C@@H](CO)C(=O)N[C@H](C(=O)N[C@@H](C)C(N)=O)[C@@H](C)OP(=O)(O)O | PLK1 (Homo sapiens, UniProt P53350) | polo-box domain binding, isothermal titration calorimetry |  | concentration not given, 25 °C |  | binding enthalpy | -15.8 ± 0.11 kcal/mol
Fc1ccc([C@@H]2CCNC[C@H]2COc2ccc3c(c2)OCO3)cc1 | Voltage-dependent P/Q-type calcium channel subunit alpha-1A | ion current, antagonist | HEK293 | 3 µM |  | inhibition | 73%
CCC(=O)NS(=O)(=O)c1ccc(-c2c(-c3ccccc3)noc2C)cc1 | THRA (Homo sapiens, UniProt P10827) | reporter gene, Gal4 hybrid reporter |  | 50 µM | baseline: vehicle | activation | 0.67 fold
Nc1nc2ccc(OC(F)(F)F)cc2s1 | Voltage-dependent P/Q-type calcium channel subunit alpha-1A | ion current, antagonist, automated patch clamp |  |  |  | IC30 | 12 µM
COc1ccccc1N1CCN(Cc2cccnc2Oc2ccc(-c3c(C)c(=O)[nH]c(=O)n3C)c(C)c2)CC1 | ADRA2C | binding, radioligand binding |  | together with: [3H]rauwolscine | baseline: Ki alpha2A over Ki alpha2C | selectivity ratio | 3
CCC(=O)NC[C@@H]1C[C@H]1c1cccc2c1CCO2 | Voltage-dependent P/Q-type calcium channel subunit alpha-1A | ion current, antagonist, automated patch clamp |  |  |  | IC30 | > 30 µM
CC12CCC(C(=O)O)(c3nc(C#N)c(C#N)nc31)C2(C)C (stereo not drawn) | UCHL1 | covalent, intact protein LC-MS |  | 12.5 µM |  | labelling | 10.5%
Cc1cc(Oc2ncccc2CN2CCN(c3ccc(C(F)(F)F)cn3)CC2)ccc1-c1c(C)c(=O)[nH]c(=O)n1C | ADRA2C | binding, radioligand binding |  | together with: [3H]rauwolscine | baseline: Ki alpha2B over Ki alpha2C | selectivity ratio | 11
O=C(NC1CCC1)c1ccc2nc(-c3cccc(NS(=O)(=O)NCCN4CCCCC4)c3)cn2c1 | PIK3CA (Homo sapiens, UniProt P42336, E542K) | enzyme activity |  | 10 µM |  | remaining activity | 96%
CCNC(=O)/C=C/c1cccc(Br)c1 | SLC6A19 (Homo sapiens, UniProt Q695T7) | inhibitor, FLIPR membrane potential | CHO-BC cells | 0.1 µM, unit not given | baseline: no inhibitor | remaining transport activity | 0.924
COc1ccc(S(=O)(=O)n2nc(SCc3ccc(Cl)cc3)nc2N)cc1 | LYPLAL1 (Homo sapiens, UniProt Q5VWZ2) | enzyme activity, activator, gel-based ABPP | purified protein | concentration not given, together with: FP-rhodamine | baseline: DMSO | probe labeling increase | 2.2 fold
CO[C@@H]1O[C@@H](C)[C@@H](O)[C@@H](O)[C@@H]1O | fleA (Aspergillus fumigatus, UniProt Q4WW81) | ITC |  |  |  | -ΔH | 32.8 kJ/mol
OC[C@H]1OC(O)[C@H](O)[C@@H](O)[C@@H]1O (stereo partly drawn) | Hexokinase-3 (HK3, Homo sapiens, UniProt P52790, E254A/R267A) | substrate inhibition |  | mutant E254A/R267A, complete substrate inhibition model, together with: ATP 20 mM |  | kcat | 54 ± 3 s⁻¹

SMILES | tested on | assay | system | conditions | how to read | endpoint | value
Nc1nc2c(ncn2[C@@H]2O[C@H](COP(=O)(O)OP(=O)(O)OP(=O)(O)O)[C@@H](O)[C@H]2O)c(=O)[nH]1 | T1, RNA aptamer del11, 5'-triphosphate, 2',3'-cyclic phosphate | ITC |  |  |  | Kd | 10.9 nM
C[C@H](NCc1ccc(OCc2ccccc2F)cc1)C(N)=O | Voltage-dependent P/Q-type calcium channel subunit alpha-1A | ion current, antagonist | HEK293 | 3 µM |  | inhibition | 13%
O=P(O)(O)OC[C@H](O)CO (racemic) | uncharacterized protein (Pelagibacter ubique, UniProt Q4FMG4) | differential scanning fluorimetry | Candidatus Pelagibacter ubique | in-house screen |  | thermal shift | 2.13 °C
CC(C)NC(=O)C(C#N)=Cc1ccc(Cl)c([N+](=O)[O-])c1 | UCHL1 | covalent, intact protein LC-MS |  | 12.5 µM |  | labelling | 42.1%
CCS(=O)(=O)N1CC(CC#N)(n2cc(-c3ncnc4[nH]ccc34)cn2)C1 | ORM1 (Homo sapiens, UniProt P02763) | FRET |  | 1.2 µM |  | spectral overlap integral | 5.39e-15 cm³ L/mol
O=C(CCl)N(Cc1ccccc1)Cc1cc2n(n1)CCCC2 | UCHL1 | covalent, intact protein LC-MS |  | 12.5 µM |  | labelling | 19.3%
CC(C)(NS(=O)(=O)c1cccc(Cl)c1O)c1ccc2ccccc2c1 | malate dehydrogenase | enzyme activity, inhibitor |  | 200 µM, pH 7.0, 1% DMSO, aggregation counter-screen |  | remaining activity | 81%
Nc1ncnc2c1ncn2[C@@H]1O[C@H](COP(=O)(O)CP(=O)(O)OP(=O)(O)O)[C@@H](O)[C@H]1O | P2X purinoceptor 1 (P2RX1, Homo sapiens, UniProt P51575, L218T) | calcium influx |  | 31.6 nM | baseline: ionomycin response | calcium influx | 14.8% and 7.3% and 6.77%
NCCCS(=O)(=O)O | SLC6A6 (Homo sapiens, UniProt P31641, Y138A) | binding, microscale thermophoresis |  | 35.1 nM, fitted curve | higher = more binding | fraction bound | 0.000318
N[C@@H](Cc1ccccc1)C(=O)O | Phospho-2-dehydro-3-deoxyheptonate aldolase 2, chloroplastic (DHS2, Arabidopsis thaliana, UniProt Q00218) | differential scanning fluorimetry |  | together with: AAA 1 mM |  | melting temperature | no effect
O=C(C1=C(O)C(=O)N(c2ccc(O)c(C(=O)O)c2)C1c1ccc2c(c1)COC2=O)c1ccccc1 (stereo not drawn) | ESR1/YWHAZ, with 14-3-3 zeta (Homo sapiens, UniProt P03372+P63104) | 14-3-3ζ/ERα peptide binding, stabiliser, fluorescence polarization |  |  |  | EC1.2 | 63 µM
CC(C)Oc1ccc(CNCCC2(C(C)C)CCOC(C)(C)C2)cc1 (stereo not drawn) | Trypanosoma cruzi | reporter translation, Renilla luciferase mRNA translation | cell-free extract | 40 µM | baseline: DMSO | inhibition | 34.8%
CN(C)CCNc1nc(-c2cccc(-c3nc(NCCN(C)C)c4ccccc4n3)n2)nc2ccccc12 | T2, G-quadruplex DNA (Homo sapiens) | thiazole orange displacement, competitor, FID |  | 0.25 µM DNA, pH 7.4, 25 °C, KCl 100 mM, together with: thiazole orange 0.50 µM |  | IC50 | 313 nM
Nc1ncnc2c1ncn2[C@@H]1O[C@H](CO[P@](=O)(O)O[P@](=O)(O)O[P@@](=O)(O)S)[C@@H](O)[C@H]1O | GUK1 (Homo sapiens, UniProt Q16774) | ITC |  | molar ratio 1.955 |  | ΔH | -0.453 kcal/mol
CC(=O)N(C)Cc1ccc(C(=O)CCl)cc1 | UCHL1 | covalent, intact protein LC-MS |  | 12.5 µM |  | labelling | 41.9%
Nc1ncnc2c1ncn2[C@@H]1O[C@H](COP(=O)(O)OP(=O)(O)OP(=O)(O)O)[C@@H](O)[C@H]1O | P2X purinoceptor 1 (P2RX1, Homo sapiens, UniProt P51575) | ion current, agonist, two-electrode voltage clamp | Xenopus oocytes | concentration-response curve |  | Hill slope | 1
N#CC(=Cc1ccncc1)C(=O)Nc1cccc(Cl)c1 | UCHL1 | covalent, intact protein LC-MS |  | 12.5 µM |  | labelling | 36.5%
C[C@]12CCC(O)CC1=CCC1C2CC[C@]2(C)/C(=N\NC(N)=S)CCC12 (stereo partly drawn) | Trypanosoma cruzi | reporter translation, Renilla luciferase mRNA translation | cell-free extract | 40 µM | baseline: DMSO | inhibition | -7.8%

Repeated from above:
SMILES | tested on | assay | system | conditions | how to read | endpoint | value
CCC(=O)NS(=O)(=O)c1ccc(-c2c(-c3ccccc3)noc2C)cc1 | THRA (Homo sapiens, UniProt P10827) | reporter gene, Gal4 hybrid reporter |  | 50 µM | baseline: vehicle | activation | 0.67 fold
O=C(C1=C(O)C(=O)N(c2ccc(O)c(C(=O)O)c2)C1c1ccc2c(c1)COC2=O)c1ccccc1 (stereo not drawn) | ESR1/YWHAZ, with 14-3-3 zeta (Homo sapiens, UniProt P03372+P63104) | 14-3-3ζ/ERα peptide binding, stabiliser, fluorescence polarization |  |  |  | EC1.2 | 63 µM
Nc1nc2ccc(OC(F)(F)F)cc2s1 | Voltage-dependent P/Q-type calcium channel subunit alpha-1A | ion current, antagonist, automated patch clamp |  |  |  | IC30 | 12 µM
N[C@@H](Cc1ccccc1)C(=O)O | Phospho-2-dehydro-3-deoxyheptonate aldolase 2, chloroplastic (DHS2, Arabidopsis thaliana, UniProt Q00218) | differential scanning fluorimetry |  | together with: AAA 1 mM |  | melting temperature | no effect
